Published values from different studies.
Each line is one published result; not all experiments were run side by side.
Target: SRSF protein kinase 3 (SRPK3, Homo sapiens, UniProt Q9UPE1)

NC(=O)[C@@H](O)C[C@H]1CCc2sc3ncnc(O[C@H]4CC[C@H](N5CCOCC5)CC4)c3c21
inhibition (radioisotope kinase; 10 µM): 10%

CN1CCN(Cc2ccc(-c3ccc(CO[C@H]4CCC[C@@H]4NC(=O)c4cc(-c5cnn(C)c5)cnc4N)cc3)cc2)CC1
inhibition (enzyme activity, inhibitor; 0.1 µM): 4%

Cc1ccc(NC(=O)Nc2ccccc2)cc1
inhibition (binding, KINOMEscan competitive binding; concentration not given): 56%

C=CC(=O)N1Cc2nc(-c3cc(-c4cc(Cl)cnc4Cl)c(F)cc3F)n(-c3ccncn3)c2C1
inhibition (cell-free assay, inhibitor; 1 µM): 2.8%

Cc1nc2c(F)cc(-c3nc(Nc4ccc(CNC(=O)CCCCCCC(=O)NO)cc4)ncc3F)cc2n1C(C)C
inhibition (enzyme activity, inhibitor; 1 µM): 80%

N#Cc1ccc(NC(=O)Nc2ccccc2O)cc1
inhibition (binding, KINOMEscan competitive binding; concentration not given): 96.8%

CCn1cc(C(=O)O)c(=O)c2c(N)c(F)c(NC3CCCCC3)cc21
inhibition (kinase activity; 0.1 µM, with: ATP at Km): -1.9%

O=C(Nc1ccccc1)Nc1cccc(O)c1
inhibition (binding, KINOMEscan competitive binding; concentration not given): 92.7%

C=CC(=O)Nc1cccc(-c2cnc3[nH]cc(C(=O)NC(C)(C)C)c3n2)c1
inhibition (enzyme activity, inhibitor; 0.1 µM): 0%

O=C(Nc1ccccc1)Nc1ccc2c(c1)CCC2
inhibition (binding, KINOMEscan competitive binding; concentration not given): 48%

Cc1cccc(O[C@H]2CCC[C@@H](C(C)CNCc3ccncc3)C2)c1 (relative stereo)
inhibition (enzyme activity, inhibitor; 1 µM): -2%

CN1CC[C@@H](COc2cnc(C#N)cc2-c2ccn3nc(NC(=O)C4CC4)cc3c2)C1
inhibition (enzyme activity, inhibitor; 1 µM): 6%

NC(=O)C[C@H]1CCc2sc3ncnc(O[C@H]4CC[C@H](N5CCOCC5)CC4)c3c21
inhibition (radioisotope kinase; 10 µM): 10%

For quick reference, copied from above:
NC(=O)C[C@H]1CCc2sc3ncnc(O[C@H]4CC[C@H](N5CCOCC5)CC4)c3c21
inhibition (radioisotope kinase; 10 µM): 10%

Cc1nc2c(F)cc(-c3nc(Nc4ccc(CNC(=O)CCCCCCC(=O)NO)cc4)ncc3F)cc2n1C(C)C
inhibition (enzyme activity, inhibitor; 1 µM): 80%
